Measured values from different studies.
Protocols differ between the studies behind these lines.

CC(C)NCC1CCc2cc(CO)c([N+](=O)[O-])cc2N1 (stereo not shown) — apparent oral clearance (human patients, plasma; oral, 1000 mg): 62 mL/min/kg
CC#CC(=O)N1CCC[C@H]1c1nc(-c2ccc(C(=O)Nc3ccccn3)cc2)c2c(N)nccn12 — apparent central volume (population PK model; human; oral, dose not given): 31 L
O=C(NC[C@H](O)CO)c1ccncc1Nc1ccc(I)cc1F — apparent volume of distribution (human; oral, 60 mg, single dose alone): 395 L
COc1cccc(-c2ccc(NC(=O)C3=C(C(=O)O)CCC3)c(F)c2)c1 — apparent volume Vz/F (human, male, plasma; oral, 50 mg once daily, day 13, geometric mean, not pre-dosed): 12.8 L
NC1(c2ccc(-c3nc4ccn5c(=O)[nH]nc5c4cc3-c3ccccc3)cc2)CCC1 — apparent clearance (CL/F) (human patients, plasma; oral, 90 mg, expansion, dose reduced, together with: dinaciclib 9 mg/m^2): 600 mL/min
COc1cc(NC(=O)CCN2CCC(OC(=O)Nc3ccccc3-c3ccccc3)CC2)c(Cl)cc1CNC[C@H](O)c1ccc(O)c2[nH]c(=O)ccc12 — apparent clearance (human COPD patients, plasma; inhaled, 800 µg once daily or 400 µg twice daily, day 28, log population model estimate): 6.85 L/h
Cc1cc(/C=C/C#N)cc(C)c1Nc1ccnc(Nc2ccc(C#N)cc2)n1 — apparent volume of distribution (human, female, plasma; oral, 25 mg): 705 L
CC(C)NC[C@@H](C(=O)N1CCN(c2ncnc3c2[C@H](C)C[C@H]3O)CC1)c1ccc(Cl)cc1 — apparent volume of distribution (human, Healthy hepatic function, plasma; oral, 100 mg single dose, NCI classification, geometric mean): 21300 L
CCCOc1ccc([C@H]2CNC(=O)N2c2ccc3[nH]cnc3c2)cc1 — apparent terminal half-life (human volunteers fasted, plasma; oral tablet, 1800 mg single dose, day 1, geometric mean): 334 min
CNC(=O)c1cc(Oc2ccc(NC(=O)Nc3ccc(Cl)c(C(F)(F)F)c3)cc2)ccn1 — apparent oral clearance (human; oral, dose not given): 5.81 L/h
C=CC(=O)N1CCC([C@@H]2CCNc3c(C(N)=O)c(-c4ccc(Oc5ccccc5)cc4)nn32)CC1 — apparent volume of distribution (human; oral, 160 mg, single dose, mean): 966 L
CNC(=O)c1cc(Oc2ccc(NC(=O)Nc3ccc(Cl)c(C(F)(F)F)c3)cc2)ccn1 — apparent volume of distribution (population PK model; human, AML patients; oral, dose not given, typical at 80 kg): 171 L
CC(C)[C@H](N)C(=O)NCCCS(=O)(=O)O — apparent half-life (human, plasma; oral, dose not given, single dose, across doses): 42 to 48.6 min

For quick reference, copied from above:
O=C(NC[C@H](O)CO)c1ccncc1Nc1ccc(I)cc1F — apparent volume of distribution (human; oral, 60 mg, single dose alone): 395 L
